Measurements gathered from unrelated publications.
A part holds a random share of what one study measured. Substitutions count along the parent as printed.

Set 1 — method: protein-binding microarray; molecule type: double-stranded DNA, one strand shown; medium: in vitro; tested at: 250 nM; setting: 60-bp whole probe; added: salmon DNA 0.4 mg/ml; reference: random background probes; direction: higher = stronger binding; endpoint: log fluorescence; all sequences stand within: GCCTAGCAC … GTCTTGATTCGCTTGACGCTGCTG
Target: Interferon regulatory factor 5, full length, phosphomimetic (IRF5, Homo sapiens, UniProt Q13568-2, residues 1-514, K96S/S451D/S453D/S456D/S462D)
TTAGAACTGGGGTAACGATTAGTGCTA: 0.114 z-score
TTAGATATCAGTATCGATTTGTGCTAG: 7.16 z-score
GACGAACTGAGTCTCGCGACGTGCTAG: -0.391 z-score
GACGGTCTCGGTCTGGGGACGTGCTAG: -0.0537 z-score
GACGATATCGGGTTCCGAGACGTGCTA: 1.44 z-score
GACGGTATTGGGACTGGGGACGTGCTA: -0.305 z-score
ATAGGACTGGGACTGGGTTAGTGCTAG: -0.706 z-score
TTAGATATCGGGACTTGATTAGTGCTA: 1.17 z-score
GACGGTCTCGGTCCCGGGACGTGCTAG: -0.00837 z-score

Set 2 — target: CCND3, cyclin fold, Cln2 fusion (human); method: yeast growth competition, sequencing; medium: yeast; setting: weak parent motif; reference: not given; direction: higher = stronger binding; endpoint: normalised enrichment score
Parent: BRCA2 docking peptide (human); PSIKRNLLNEFDR; partner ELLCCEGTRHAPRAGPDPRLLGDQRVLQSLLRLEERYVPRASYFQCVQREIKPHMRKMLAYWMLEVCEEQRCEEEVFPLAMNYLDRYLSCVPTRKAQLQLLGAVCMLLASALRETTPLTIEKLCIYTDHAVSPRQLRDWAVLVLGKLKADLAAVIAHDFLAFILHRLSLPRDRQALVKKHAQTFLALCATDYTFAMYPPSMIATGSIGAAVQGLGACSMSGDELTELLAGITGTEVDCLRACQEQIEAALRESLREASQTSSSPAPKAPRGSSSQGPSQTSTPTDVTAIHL
L7T: 0.145
N6F: 0.211
N9S: 0.149
E10N: 0.135
F11N: 0.147

Set 3 — method: RNA Bind-n-Seq; molecule type: RNA; medium: in vitro; tested at: not given; reference: input RNA pool; direction: higher = stronger binding; endpoint: bound/input enrichment
Target: RING finger protein unkempt homolog, zinc fingers 1-6, GST-SBP tag (UNK, Homo sapiens, UniProt Q9C0B0, residues 30-357)
UniProt Q9C0B0, sequence (30-357, looked up): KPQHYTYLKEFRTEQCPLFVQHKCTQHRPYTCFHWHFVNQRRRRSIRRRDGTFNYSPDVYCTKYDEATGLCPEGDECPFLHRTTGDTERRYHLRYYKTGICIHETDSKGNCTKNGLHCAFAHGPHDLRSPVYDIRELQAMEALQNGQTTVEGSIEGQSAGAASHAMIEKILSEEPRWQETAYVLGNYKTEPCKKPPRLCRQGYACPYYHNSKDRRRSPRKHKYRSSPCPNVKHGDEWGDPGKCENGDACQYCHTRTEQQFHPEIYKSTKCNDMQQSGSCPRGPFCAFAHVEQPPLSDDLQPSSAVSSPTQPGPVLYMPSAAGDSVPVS
Setting: RNA with constant flanks, human and mouse sites, ends assumed
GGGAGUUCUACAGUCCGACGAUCCAGAAGCCACGUUUGUCUGGGCACAAACUGUGAUUUCUCUCUUGCCUGUGUUUUAUCUUAUUUUAUCUUAUUUCUCGCUUGCCCUAUGUAGGCCAAACUGGCUUCCAGUGUGCCUCCCGCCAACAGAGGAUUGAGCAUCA: 3 ratio
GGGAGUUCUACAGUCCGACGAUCGAGCCAGUUGUGGCAGAGACAGUGGAAGAAGUGAAAAAAGAACCUGUUUUGGUGUGUCCACCCUUACGAAGCCGAGCAUACACACCGCCCAGUGAUCUCCAGAGUCGCUUGGAAUCUCAUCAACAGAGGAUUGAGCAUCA: 0.179 ratio
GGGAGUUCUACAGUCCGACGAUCGUUUAUUCUCAGAGCACUGCUCUCACUCAUAAGCAGUCUUAUUAUUCCAUUGCCAAAUGUGUAGCUGCCCUUACUCGAGCUUGCCCUAAAGAGGGACCCGCCGUAGUAGGUCAGUUUAUUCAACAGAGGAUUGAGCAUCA: 0.185 ratio
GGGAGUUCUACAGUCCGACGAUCGGGGAGGGGGACCUGCACACACCCAUGCUGAAGCUCUCCUAUAGUACCUCACAAGAAUUUAGCUCCCGGGAGGAGCUGCUGUCCCACAAAGAAGAGGAUAAAAGCCAAACAUCUUUUGAUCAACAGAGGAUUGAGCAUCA: 1.1 ratio
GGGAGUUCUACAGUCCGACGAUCGGAGAUCGGGCCGCGCGCUGAGAGCACCGAGUGGCGGAGAGGCCGCGCGGCGCGGGGCAGGGCCCGAGCGCAGCCCCCGGACGCAGGAGACCGGAGCGCAGUCGCGGCCUGAGCGGCGGGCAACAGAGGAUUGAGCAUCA: 1.32 ratio
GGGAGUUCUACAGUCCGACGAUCGAAGAUCACUUGGCAGUGAAGCAUUUUUCAGUUGAAGGACAGUUGGAAUUCAGAGCCCUUCUAUUUGUCCCACGACGUGCUCCUUUUGAUCUGUUUGAAAACAGAAAGAAAAAGAACAACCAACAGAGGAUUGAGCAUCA: 0.105 ratio

Other studies, line by line
PhoQ, residues 284 288 289 292 302 303 TYGVAM  fold induction (PhoP, residues 12 14 15 18 19 TTLRV (Escherichia coli, UniProt P23836); Sort-seq, refers to: YFP reporter; E. coli; PhoQ-PhoP variant library, added: 10 µM Mg2+; reference: high Mg2+ state, higher = stronger signaling): 8.03

Repeated from above (other studies, line by line):
PhoQ, residues 284 288 289 292 302 303 TYGVAM  fold induction (PhoP, residues 12 14 15 18 19 TTLRV (Escherichia coli, UniProt P23836); Sort-seq, refers to: YFP reporter; E. coli; PhoQ-PhoP variant library, added: 10 µM Mg2+; reference: high Mg2+ state, higher = stronger signaling): 8.03
